Results from different studies.
Lines come from different studies, so protocols differ. ± marks the error that the study gave. Where no end group is shown, it is not given here.

CC(C)C[C@H](NC(=O)[C@H](CO)NC(=O)[C@H](CCCNC(=N)N)NC(=O)[C@H](CC(=O)O)NC(=O)[C@H](CCC(=O)O)NC(=O)[C@H](C)NC(=O)[C@@H]1CCCN1C(=O)[C@H](C)NC(=O)[C@H](CCC(=O)O)NC(=O)[C@@H]1CCCN1C(=O)[C@@H]1CCCN1)C(N)=O
DOPAC level (HPLC-EC; F344 rat, normal, striatum; intranasal, 100 µg, 5 days/week for 3 weeks): 1260 ± 174 ng/g

TDVDHVFLAF-NH2 (C-amide)
inhibition (Drosophila melanogaster; heart rate; adult heart; 40 nL injected, 1 µM, 10 min; baseline: DMS): 103%

NC(=O)Cn1cc(COc2ccccc2-c2nc(-c3ccccc3)no2)nn1
mRNA level (Caco-2; qPCR, refers to: TP53; concentration not given, 24 h; baseline: untreated): 4.75 ± 0.03 fold

COc1ccc(-c2cc3ccccc3[nH]2)cc1
viability (RAW264.7; sulforhodamine B; 50 µM, 20 h; baseline: vehicle): 59.8 ± 4%

O=C(Cn1cc(COc2ccccc2-c2nc(Cc3ccccc3)no2)nn1)NNC(=S)Nc1ccccc1
mRNA level (A549; qPCR, refers to: EGFR; IC50, 24 h; baseline: untreated cancer cells): 0.29 ± 0.08 fold

TDADHVFLRF-NH2 (C-amide)
inhibition (Drosophila melanogaster; gut contraction; wandering third instar larval gut; injection, 1 µM, within 10 min; baseline: DMS effect): 26%

Clc1ccc(-c2cc3ccccc3[nH]2)cc1Cl
inhibition (RAW264.7; NO release, inhibitor, Griess; 50 µM, 20 h, LPS-stimulated): 55.8%

Cc1ccc(NC(=O)c2ccc(CN3CCN(C)CC3)cc2)cc1Nc1nccc(-c2cncc(-c3oncc3C)c2)n1
MDS-UPDRS part II score (mild-to-moderate Parkinson's disease patients; oral, 100 mg once daily, pre-dose baseline, on anti-Parkinson medication; direction not given): 8.4 ± 3.9

Nc1cccc(-c2cc3ccccc3[nH]2)c1
inhibition (RAW264.7; NO release, inhibitor, Griess; 50 µM, 20 h, LPS-stimulated): 70.8%

Cc1cc(C(C#N)c2ccc(Cl)cc2)c(Cl)cc1NC(=O)c1cc(I)cc(I)c1O (stereo not shown)
faecal egg count reduction (Haemonchus contortus; multidrug resistant, sheep; subcutaneous, 5 mg/kg, day 10 post-treatment, together with: moxidectin 0.2 mg/kg): 89%

NNC(=O)Cn1cc(COc2ccccc2-c2nc(-c3ccccc3)no2)nn1
mRNA level (A549; qPCR, refers to: mTOR; IC50, 24 h; baseline: untreated cancer cells): 0.28 ± 0.009 fold

CC(C)=CCc1c(-c2ccccc2)n(CC=C(C)C)c2ccccc12
viability (RAW264.7; sulforhodamine B; 50 µM, 20 h; baseline: vehicle): 89 ± 3.4%

COc1cccc2c1C(=O)c1c(O)c3c(c(O)c1C2=O)C[C@@](O)(C(=O)CO)C[C@@H]3O[C@H]1C[C@H](N)[C@H](O)[C@H](C)O1
mRNA level (A549; qPCR, refers to: mTOR; IC50, 24 h; baseline: untreated cancer cells): 0.18 ± 0.07 fold

O=C1c2c(O)cc(O)cc2O[C@H](c2cc(O)c(O)c(O)c2)[C@H]1O
EC50 (GABAA receptor, rat; mIPSC enhancement, positive allosteric modulator, whole-cell patch clamp; hippocampal neurons, cultured; together with: ethanol 60 mM for 30 min, recorded 24 h after exposure): ~0.15 µM

CON=Cc1c(-c2ccccc2)[nH]c2ccccc12
viability (RAW264.7; sulforhodamine B; 50 µM, 20 h; baseline: vehicle): 48.3 ± 7.8%

CO/N=C1\C[C@]2(C[C@@H]3C[C@@H](C/C=C(\C)C[C@@H](C)/C=C/C=C4\CO[C@@H]5[C@H](O)C(C)=C[C@@H](C(=O)O3)[C@]45O)O2)O[C@H](/C(C)=C/C(C)C)[C@H]1C
faecal egg count reduction (Haemonchus contortus; multidrug resistant, sheep; oral, 0.2 mg/kg, day 10 post-treatment, together with: closantel 10 mg/kg): 87%

For quick reference, copied from above:
NC(=O)Cn1cc(COc2ccccc2-c2nc(-c3ccccc3)no2)nn1
mRNA level (Caco-2; qPCR, refers to: TP53; concentration not given, 24 h; baseline: untreated): 4.75 ± 0.03 fold
